Measurements from different studies.
Compare with care: the assays were run in different laboratories. Numbers after ± are the reported error.

| Compound | target or system | test | test system | conditions | scale | quantity | value |
| --- | --- | --- | --- | --- | --- | --- | --- |
| CN1Cc2cc(Cl)ccc2-n2c(nnc2C2CCN(c3cccc([18F])n3)CC2)C1 |  |  | C57BL/6 mouse male, bone | intravenous, dose not given, 30 min, added: blocking agent 10 mg/kg |  | tissue uptake | 5.38 ± 2.41 %ID/g |
| CSCC[C@H](NC(=O)CNC(=O)[C@H](CCCCN)NC(=O)[C@H](CC(C)C)NC(=O)[C@@H]1CCCN1C(=O)[C@H](CO)NC(=O)[C@H](Cc1c[nH]cn1)NC(=O)[C@H](Cc1c[nH]c2ccccc12)NC(=O)[C@H](CCCNC(=N)N)NC(=O)[C@H](CC(C)C)NC(=O)[C@H](CCCNC(=N)N)NC(=O)[C@H](Cc1c[nH]c2ccccc12)NC(=O)[C@H](CS)NC(=O)CCCCCNC(=O)CN1CCN(CC(=O)O)CCN(CC(=O)O)CCN(CC(=O)O)CC1)C(=O)O [copper-64 labelled] |  | PET | C57BL/6J mice, B16-F10 tumour, tumor | intravenous, 18 h |  | tissue uptake | 1.93 ± 0.1 %ID/g |
| COc1ccccc1-c1n[nH]c2nc(NC3CCN(C(=O)Cc4ccc(F)cc4F)CC3)ncc12 |  | bead binding, competition bead pull-down, measured: LINJ.35.5450 | Leishmania donovani axenic amastigote extract | 10 µM | baseline: vehicle | relative abundance | 1.06 |
| CC[C@H](C)[C@H](NC(=O)[C@H](CCCNC(=N)N)NC(=O)[C@H](CCCCN)NC(=O)[C@H](Cc1ccc(O)cc1)NC(=O)[C@H](CC(=O)O)NC(=O)[C@H](C)NC(=O)CNC(=O)CCOCCOCCOCCNC(=O)CN1CCN(CC(=O)O)CCN(CC(=O)O)CCN(CC(=O)O)CC1)C(=O)N[C@H](C(=O)N[C@H](C(=O)N[C@@H](CCCCN)C(=O)N[C@H](C(=O)N[C@@H](CC(N)=O)C(N)=O)C(C)C)C(C)C)[C@@H](C)O [copper-64 labelled] |  | ex vivo gamma counting | C57BL/6J male mice, B16-F10 tumour, lung | intravenous, 1.85 MBq, 5 min |  | tissue uptake | 4.25 ± 0.638 %ID/g |
| CC[C@H](C)[C@H](NC(=O)[C@@H](Cc1c[nH]c2ccccc12)NC(=O)[C@@H]1CCCN1C(=O)[C@H](CCCCN)NC(=O)[C@H](CCCCN)NC(=O)CCNC(=O)CCNC(=O)CN1CCN(CC(=O)O)CCN(CC(=O)O)CCN(CC(=O)O)CC1)C(=O)N[C@@H](C[Si](C)(C)C)C(=O)O [gallium-68 labelled] |  |  | nude mouse HT-29 xenograft, blood | 90 min |  | tissue uptake | 0.18 ± 0.08 %ID/g |
| CC[C@H](C)[C@H](NC(=O)[C@H](CCCCN)NC(=O)CNC(=O)[C@H](CC(C)C)NC(=O)[C@H](Cc1ccccc1)NC(=O)[C@H](CCCCN)NC(=O)[C@H](CO)NC(=O)[C@H](Cc1ccccc1)NC(=O)[C@H](Cc1c[nH]c2ccccc12)NC(=O)[C@H](CCC(N)=O)NC(=O)[C@@H](NC(=O)[C@H](Cc1ccccc1)NC(=O)CCCCCNC(=O)CN1CCN(CC(=O)O)CCN(CC(=O)O)CCN(CC(=O)O)CC1)C(C)C)C(=O)N[C@@H](CCC(=O)O)C(=O)N1CCC[C@H]1C(=O)N[C@@H](CC(=O)O)C(=O)N[C@H](C(=O)N[C@@H](CO)C(=O)N[C@@H](CCC(N)=O)C(=O)N[C@H](C(=O)N[C@@H](CCC(N)=O)C(=O)N[C@@H](CC(=O)O)C(=O)N1CCC[C@H]1C(=O)N[C@@H](CC(N)=O)C(=O)N[C@@H](CC(=O)O)C(=O)N[C@@H](CCC(N)=O)C(=O)N[C@@H](Cc1ccc(O)cc1)C(=O)N[C@@H](CCC(=O)O)C(=O)N1CCC[C@H]1C(=O)N[C@@H](Cc1ccccc1)C(=O)O)C(C)C)C(C)C [copper-64 labelled] |  |  | BALB/c mice, male, CT26 tumour-bearing, stomach | 2 h, vehicle-treated |  | tissue uptake | 1.68 ± 0.9 %ID/g |
| C[C@H](O)[C@@H](NC(=O)[C@H]1CCCN1C(=O)[C@@H](CCCCN)NC(=O)[C@@H](CO)NC(=O)[C@@H](Cc1ccc(O)cc1)NC(=O)[C@@H](CC(N)=O)NC(=O)CCOCCOCCOCCNC(=O)CN1CCN(CC(=O)O)CCN(CC(=O)O)CCN(CC(=O)O)CC1)C(=O)N[C@H](CC(=O)O)C(=O)N[C@H](CCCNC(=N)N)C(=O)N[C@H](CCC(N)=O)C(=O)N[C@H](Cc1ccc(O)cc1)C(=O)N[C@H](Cc1c[nH]cn1)C(=O)N[C@H](Cc1ccccc1)C(N)=O [gallium-68 labelled] |  |  | BALB/c nude mice U-87 MG tumour, muscle | intravenous, 1.85 MBq, 0.08333 h, radiolabelled |  | tissue uptake | 2.21 ± 0.27 %ID/g |
| CCCC[C@H]1C(=O)N(C)[C@@H](CCCC)C(=O)N[C@@H](CCCNC(=O)CN2CCN(CC(=O)O)CCN(CC(=O)O)CCN(CC(=O)O)CC2)C(=O)N[C@H](C(=O)NCC(N)=O)CSCC(=O)N[C@@H](Cc2ccc(O)cc2)C(=O)N(C)[C@@H](C)C(=O)N[C@@H](CC(N)=O)C(=O)N2CCC[C@H]2C(=O)N[C@@H](Cc2c[nH]cn2)C(=O)N[C@@H](CC(C)C)C(=O)N(C)CC(=O)N[C@@H](Cc2c[nH]c3ccccc23)C(=O)N[C@@H](CO)C(=O)N[C@@H](Cc2c[nH]c3ccccc23)C(=O)N1C [gallium-68 labelled] |  |  | NOD/SCID mice with CHO-hPD-L1 xenograft, liver | 120 min post injection |  | tissue uptake | 8.22 ± 4.37 %ID/g |
| CC(C)(C)C(=O)OCOP(=O)(OCOC(=O)C(C)(C)C)C1CCCN(O)C1=O (stereo not shown) | DU-145 |  |  |  |  | log GI50 | -6.08 log M |
| CC[C@H](C)[C@H](NC(=O)[C@H](CCCNC(=N)N)NC(=O)[C@H](CCCCN)NC(=O)[C@H](Cc1ccc(O)cc1)NC(=O)[C@H](CC(=O)O)NC(=O)[C@H](C)NC(=O)CNC(=O)CCOCCOCCOCCNC(=O)CN1CCN(CC(=O)O)CCN(CC(=O)O)CCN(CC(=O)O)CC1)C(=O)N[C@H](C(=O)N[C@@H](CC(C)C)C(=O)N[C@@H](CCCCN)C(=O)N[C@H](C(=O)N[C@@H](CC(N)=O)C(N)=O)C(C)C)[C@@H](C)O [copper-64 labelled] |  | ex vivo gamma counting | C57BL/6J male mice, B16-F10 tumour, heart | intravenous, 1.85 MBq, 20 min |  | tissue uptake | 0.986 ± 0.489 %ID/g |
| CC(C)[C@H]1NC(=O)C[C@H]2/C=C/CCSSC[C@@H](NC1=O)C(=O)N[C@H](Cc1cccc3ccccc13)C(=O)NCC(=O)O2 | PRKACB (Homo sapiens, UniProt P22694) | enzyme activity, inhibitor |  | 10 µM |  | inhibition | -7.5% |
| CC(C)C[C@@H](NC(=O)[C@@H](CCCNC(=N)N)NC(=O)[C@@H](Cc1c[nH]cn1)NC(=O)[C@@H](Cc1c[nH]c2ccccc12)NC(=O)[C@@H](Cc1c[nH]cn1)NC(=O)[C@@H](Cc1ccccc1)NC(=O)[C@H](NC(=O)[C@@H](Cc1ccc(O)cc1)NC(=O)CNC(=O)CNC(=O)CCOCCOCCOCCNC(=O)CN1CCN(CC(=O)O)CCN(CC(=O)O)CC1)[C@H](C)O)C(=O)N[C@H](CC(N)=O)C(=O)N1CCC[C@@H]1C(=O)O [gallium-68 labelled] |  | gamma counting | C57BL/6 mice, male, pancreas | intravenous, 1.85 MBq, 30 min |  | tissue uptake | 0.77 ± 0.24 %ID/g |
| O=C1NC2(CC2)COc2ncc(F)cc2[C@H]2COCCN2c2ccn3ncc1c3n2 |  |  | Sprague-Dawley rat, female, uterus | oral, 10 mg/kg/day, 4 weeks dosing, end of recovery |  | organ-to-brain weight ratio | 24.2 ± 3.68% |

For quick reference, copied from above:
| Compound | target or system | test | test system | conditions | scale | quantity | value |
| --- | --- | --- | --- | --- | --- | --- | --- |
| CC(C)C[C@@H](NC(=O)[C@@H](CCCNC(=N)N)NC(=O)[C@@H](Cc1c[nH]cn1)NC(=O)[C@@H](Cc1c[nH]c2ccccc12)NC(=O)[C@@H](Cc1c[nH]cn1)NC(=O)[C@@H](Cc1ccccc1)NC(=O)[C@H](NC(=O)[C@@H](Cc1ccc(O)cc1)NC(=O)CNC(=O)CNC(=O)CCOCCOCCOCCNC(=O)CN1CCN(CC(=O)O)CCN(CC(=O)O)CC1)[C@H](C)O)C(=O)N[C@H](CC(N)=O)C(=O)N1CCC[C@@H]1C(=O)O [gallium-68 labelled] |  | gamma counting | C57BL/6 mice, male, pancreas | intravenous, 1.85 MBq, 30 min |  | tissue uptake | 0.77 ± 0.24 %ID/g |
| CC[C@H](C)[C@H](NC(=O)[C@@H](Cc1c[nH]c2ccccc12)NC(=O)[C@@H]1CCCN1C(=O)[C@H](CCCCN)NC(=O)[C@H](CCCCN)NC(=O)CCNC(=O)CCNC(=O)CN1CCN(CC(=O)O)CCN(CC(=O)O)CCN(CC(=O)O)CC1)C(=O)N[C@@H](C[Si](C)(C)C)C(=O)O [gallium-68 labelled] |  |  | nude mouse HT-29 xenograft, blood | 90 min |  | tissue uptake | 0.18 ± 0.08 %ID/g |
